Results from different studies.
Cell line: SH-SY5Y

CC(C)c1ccc(N(C)c2ccc3c(c2)OCC[C@H]3CNc2cnccc2C(=O)O)cc1  IC50 (cell growth or viability, ATP luminescence; 7 days): 0.0135 µM
CCOc1cncc(-c2ccc(NC(=O)C3(c4ccnc(NS(=O)(=O)C5CC5)n4)CCOCC3)nc2)n1  IC50 (cell growth or viability, ATP luminescence; 72 h): 0.036 µM
Cc1c(COc2cc(OCc3cccc(C#N)c3)c(CNCCO)cc2Cl)cccc1-c1cccc(OCCCCCCC(=O)NO)c1  IC50 (cell growth or viability, CCK-8; 48 h): > 20 µM
CC(=O)O[C@H]1OC[C@@H]2C=C([C@@]3(C)CCCC(C)(C)C3)CC[C@H]12  IC50 (cytotoxicity, MTT; 24 h): 7.1 µM
Cc1c(COc2cc(OCc3cccc(C#N)c3)c(CNC(C)(CO)CO)cc2Cl)cccc1-c1cccc(OCCCCCCC(=O)NO)c1  IC50 (cell growth or viability, CCK-8; 48 h): > 20 µM
COc1c(C)c(OCc2ccccc2)c(C)c(OCc2ccccc2)c1C(=O)/C=C/c1ccccc1  IC50 (cell growth or viability, SRB; 72 h): > 50 µM
Cc1cc(C)[nH]n1  IC50 (cell growth, MTT; 24 h): > 800 µM
Cc1c(COc2cc(OCc3cccc(C#N)c3)c(CN3CCCC[C@@H]3C(=O)O)cc2Cl)cccc1-c1cccc(OCCCCCC(=O)NO)c1  IC50 (cell growth or viability, CCK-8; 48 h): > 20 µM
OCn1cnc2ccccc21  IC50 (cell growth or viability, MTT; 24 h): 17.7 µM
CCCCCC(=O)Oc1c(C)c(OC)c2c(/C=C/c3ccccc3)c(CCCC)c(=O)oc2c1C  IC50 (cell growth or viability, SRB; 72 h): > 50 µM
O=C(CCCCCCC(=O)Nc1ccccc1)NO  IC50 (cell growth or viability, CCK-8; 48 h): 7.72 µM
COc1c(C)c(OS(=O)(=O)c2ccccc2)c(C)c(OS(=O)(=O)c2ccccc2)c1C(=O)/C=C/c1ccccc1  IC50 (cell growth or viability, SRB; 72 h): > 50 µM
Cc1c(COc2cc(OCc3cccc(C#N)c3)c(CN3CCCC[C@H]3C(=O)O)cc2Cl)cccc1-c1cccc(OCCCCCCC(=O)NO)c1  IC50 (cell growth or viability, CCK-8; 48 h): > 20 µM
CCCCCCCCCC(=O)Oc1c(C)c(OC)c2c(/C=C/c3ccccc3)c(CCCCCCCC)c(=O)oc2c1C  IC50 (cell growth or viability, SRB; 72 h): > 50 µM
CCOC(=O)c1cc(C)n(CO)n1  IC50 (cell growth or viability, MTT; 24 h): 474 µM

A few entries again:
Cc1cc(C)[nH]n1  IC50 (cell growth, MTT; 24 h): > 800 µM
